Literature values that unrelated publications cite.
Compare with care: the assays were run in different laboratories. ± marks the error that the study gave.
UniProt Q9NYY3, sequence (whole entry, looked up): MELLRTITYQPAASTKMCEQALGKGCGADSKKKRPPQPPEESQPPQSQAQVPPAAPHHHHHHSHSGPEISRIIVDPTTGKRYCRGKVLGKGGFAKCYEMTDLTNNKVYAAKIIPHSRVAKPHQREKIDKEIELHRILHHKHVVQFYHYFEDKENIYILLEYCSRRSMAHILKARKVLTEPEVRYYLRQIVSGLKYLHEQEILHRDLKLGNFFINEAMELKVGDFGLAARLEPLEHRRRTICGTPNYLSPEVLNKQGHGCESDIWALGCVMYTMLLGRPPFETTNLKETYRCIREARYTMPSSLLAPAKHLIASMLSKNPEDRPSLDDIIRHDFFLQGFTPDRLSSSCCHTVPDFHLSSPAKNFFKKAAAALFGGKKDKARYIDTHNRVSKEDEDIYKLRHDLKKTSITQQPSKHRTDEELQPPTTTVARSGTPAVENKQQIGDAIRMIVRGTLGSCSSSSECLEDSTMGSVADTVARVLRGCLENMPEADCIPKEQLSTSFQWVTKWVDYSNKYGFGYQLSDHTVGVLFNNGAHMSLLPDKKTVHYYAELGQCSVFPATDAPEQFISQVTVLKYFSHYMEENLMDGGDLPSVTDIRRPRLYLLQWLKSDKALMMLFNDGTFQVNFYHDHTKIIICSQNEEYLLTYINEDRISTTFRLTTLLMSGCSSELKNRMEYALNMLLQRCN

SMILES | tested on | test | system | setting | how to read | measurement | result
C[C@H]1COCCN1c1nc(-c2cnc(N)cc2C(F)F)nc(N2CCOCC2)n1 | C33 A |  |  |  |  | GI50 | 331 nM
CC1(C)S[C@@H]2[C@H](NC(=O)[C@H](N)c3ccccc3)C(=O)N2[C@H]1C(=O)O | Klebsiella pneumoniae |  | clinical isolate RKI-No_94/15 |  |  | MIC | > 16 µg/mL
COc1ccc2[nH]c([S+]([O-])Cc3ncc(C)c(OC)c3C)nc2c1 (centres unmarked) |  |  | plasma | concentration not given, total, steady state |  | Cmax | 3500 nM
Cc1nsc(-c2nnc3n2CCN(C(=O)c2ccc(F)cc2)[C@@H]3C)n1 |  |  | human | oral, 20 mg, day 1, fed |  | Cmax | 153 ng/mL
O=C1NCCN1CCN1CCC(c2cn(-c3ccc(F)cc3)c3ccc(Cl)cc23)CC1 |  |  | plasma | concentration not given, total concentration |  | Cmax | 131 nM
Nc1cc(C(F)(F)F)c(-c2nc(N3CCOCC3)nc(N3CCOCC3)n2)cn1 | PLK2 (Homo sapiens, UniProt Q9NYY3) | enzyme activity |  | 10 µM | baseline: untreated | remaining activity | 65%
CNC(C)C1CCC(N)C(OC2C(N)CC(N)C(OC3OCC(C)(O)C(NC)C3O)C2O)O1 (centres unmarked) | Klebsiella pneumoniae |  | clinical isolate RKI-No_94/15 |  |  | MIC | > 8 µg/mL
O=C(O)C[C@H](O)C[C@H](O)/C=C/c1c(C2CC2)nc2ccccc2c1-c1ccc(F)cc1 |  |  | plasma | concentration not given, total, steady state |  | Cmax | 30 nM
COCCc1ccc(OCC(O)CNC(C)C)cc1 (centres unmarked) |  |  | human fasted | 200 mg multiple doses, day 7, mean |  | Cmax | 108 ng/mL
CCCN1CCCC[C@H]1C(=O)Nc1c(C)cccc1C |  |  | plasma | concentration not given, total concentration |  | Cmax | 1770 nM
COc1cc(N2CCC(N3CCN(C)CC3)CC2)ccc1Nc1ncc(Cl)c(Nc2ccccc2P(C)(C)=O)n1 |  |  | healthy subjects | dose not given, CYP3A inhibition, single dose, with: itraconazole 200 mg twice daily |  | Cmax | 401 ng/mL
CNCc1cc(-c2ccccc2F)n(S(=O)(=O)c2cccnc2)c1 |  |  | human, plasma | 30 mg multiple dose, observed clinical data |  | Cmax | 40.1 ng/mL
O=C(CCCN1CC=C(n2c(=O)[nH]c3ccccc32)CC1)c1ccc(F)cc1 |  |  | plasma | concentration not given, total, steady state |  | Cmax | 10 nM
C=CC(=O)N1CCC([C@@H]2CCNc3c(C(N)=O)c(-c4ccc(Oc5ccccc5)cc4)nn32)CC1 |  |  | human patients | oral, 160 mg once daily, day 1 |  | Cmax | 376 ± 192 ng/mL
